Assay results collected from several papers.
Parts stem from different laboratories: compare values within a part only.

Study 1 — method: RNA Bind-n-Seq; form: RNA; medium: in vitro; concentration: not given; baseline: input RNA pool; direction: higher = stronger binding
Target: RING finger protein unkempt homolog, zinc fingers 1-6, GST-SBP tag (UNK, Homo sapiens, UniProt Q9C0B0, residues 30-357)
Notes: RNA with constant flanks, human and mouse sites, ends assumed
Shared flanks, not repeated: GGGAGUUCUACAGUCCGACGAUC … CAACAGAGGAUUGAGCAUCA
Construct (chain): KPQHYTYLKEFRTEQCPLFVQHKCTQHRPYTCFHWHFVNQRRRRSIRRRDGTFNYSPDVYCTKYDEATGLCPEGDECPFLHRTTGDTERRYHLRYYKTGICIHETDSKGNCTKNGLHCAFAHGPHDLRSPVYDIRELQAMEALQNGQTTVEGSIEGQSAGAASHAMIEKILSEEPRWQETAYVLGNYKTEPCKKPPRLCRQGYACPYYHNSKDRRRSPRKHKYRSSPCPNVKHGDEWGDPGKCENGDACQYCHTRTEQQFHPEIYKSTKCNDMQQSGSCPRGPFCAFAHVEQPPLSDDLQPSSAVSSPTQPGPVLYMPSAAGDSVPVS
| Sequence | bound/input enrichment |
| --- | --- |
| CCAGGAAGAAAGUGAAUCCUGAGACCAGACAGAAAGGCCAGGUUCUGGGAGAAGUAGACCUAGUUGGCAUAGUGAGGCUCACAGAAAACAGGAAGCCCUUUGUUCCGGAGAACAGCCCAG | 0.581 ratio |
| CAGCAAAAAAUAAACAAAUUUGCUCGGAAUACGAGUCGAAUCACAGAGCUAAAGGAGGAAAUAGAAGUGAAGAAGAAACAUCUCCAGAACUUAGAGGACGCCUGUGAUGACAUCAUGCUG | 0.477 ratio |
| AGAGAAAUGAGAAAGAAUCUUACACAAGAAGAGAUGCAAAGAAUGUCUACUAGAGUCCUUUUGGCGACUCUUUCCAUUCCUAUUACUCCUGAGCGAACUGAUAUUGCUCGACUUUUGGAU | 0.118 ratio |
| AGAAUGGAAUCCUGACAAUGAUACAGGACACACAAUGGGUGAUCCAUUCAUGUUGCAGCAGUCUACAAAUCCAGCACCAGGAAUUCUGGGACCUCCACCUCCCUCAUUUCAUCUUGGGGG | 0.148 ratio |
| AUUCUUUACAACUUGGUCUUGAGAAAUCUUGAAGAAAGAAAUUAUACAGAAUAUAAACCUUUGUGCCCAGAAGAUAAAGAUGUGGUAGAAAAUGGAUUGAUAGCAGGAGCAGUAGAUCUG | 0.566 ratio |
| CCAAGCCUUAUGCCUUUGAUCGUGUGUUCCAGUCAAGCACAUCUCAAGAGCAAGUAUACAACGACUGUGCAAAAAAGAUUGUUAAAGAUGUUCUUGAGGGCUAUAAUGGAACAAUAUUUG | 0.0839 ratio |
| UCUGAGAAUUACAAACAGAAGAUAGAAAGAAGUCUUAAAGCUGGUACAGUUAAAGAAUGUAUUAGUCUCAGAAGCUGUGUAUGUUUAUGUGAUAGAAUCUAAAUAAAAUACAGACAUCUA | 0.264 ratio |
| UCAGCGAGGACCUCUGCAAGCCAAAAAAUGUCGUCCCAGCAAUAUCAGCAGCAACGUAGAAAAUUUGCAGCUGCCUUCCUGGCAUUGAUUUUCAUCUUGGCAGCUGUGGACACUGCUGAG | 0.107 ratio |
| ACGGUUGGCCAUGGGUCUGACUACUCUUUGAGUGAAGUGCUCUGGGUCUGUGCCAACCUCUUCAGCGACGUCCAGCUCAAGAUGAGUCACAAGAGGAUCAUGCUGUUCACCAAUGAAGAC | 0.13 ratio |
| AAGGCGUUCCCGGAGCACCUGUACCAGCGCGUCAAAAUCAGGAAUAAGGUUUUUGGAUUGCAAGGGGUUUCCAGGGGCAUGUAUGACGGUCCUGUGUACGAGGUACCAGCUACACCCAAA | 0.127 ratio |
| AAGAUUUGGAGAGGAUGUGCUUGAAGUAAUCAAGGACUCUAAUCCUGUAGACAAGUGCAAAUUAGAUCCAAACAAGGCAUAUAUUCAGAUUACCUACGUGGAGCCCUUCUUUGACACCUA | 0.332 ratio |

Study 2 — method: competition protein-binding microarray; form: double-stranded DNA, one strand shown; medium: in vitro; concentration: 2 µM; with: Cbf1 competitor, 0.05 µM; direction: higher = stronger binding; shared flanks, not repeated: … GTCTTGATTCGCTTGACGCTGCTG
Target: Phosphate system positive regulatory protein PHO4, full length, GST-tagged (PHO4, Saccharomyces cerevisiae, UniProt P07270, residues 1-312)
Notes: whole 60-bp probe, lowest competitor level
Construct (chain): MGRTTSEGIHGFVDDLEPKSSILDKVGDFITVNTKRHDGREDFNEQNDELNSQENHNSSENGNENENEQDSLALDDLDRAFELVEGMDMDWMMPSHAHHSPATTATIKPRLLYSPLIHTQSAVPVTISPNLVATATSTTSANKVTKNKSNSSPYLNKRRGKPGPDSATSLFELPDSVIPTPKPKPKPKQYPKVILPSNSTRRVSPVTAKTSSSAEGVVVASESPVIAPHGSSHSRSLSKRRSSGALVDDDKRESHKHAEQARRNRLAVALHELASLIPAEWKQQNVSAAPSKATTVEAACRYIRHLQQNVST
| Sequence | fluorescence intensity [a.u.] |
| --- | --- |
| TGCGCAACAACTTGTTTTGTGGGTGTATGTCTAGAA | 4520 |
| GTCTTGTCTCATTGTTTGGTGGGTGTCCCCACTTCA | 4810 |
| CTTCTGTAAATTTAGCACGTGTTTTGACGCGCCCCG | 17300 |
| CATACCCAACCTTGGGAGGTGGGTGAAGATATTTGT | 4110 |
| CTTCTGTAAATTTGAAAAGTGGGTGGACGCGCCCCG | 4170 |
| CGCAGTCAGCGAGCCCACGTGCTTGTGTTGACTGGA | 17200 |
| TTCTAGGTTTAACTTCACGTGTTCCCCACCGAGGCG | 12400 |
| AAAGCGGTAATTTGCAGCGTGGGTGCAGATATCTAT | 8680 |
| CAGAAGCCGCGATTTCACATGCCGGCCATTATGGCA | 5170 |
| AGTTTCAATATCTGTCCCGTGGAAGTTATATTCGCT | 5940 |
| TGCGCAACAACTTGTCGTGTGGGTGTATGTCTAGAA | 6680 |
| CTTGCAAAAAGAAAAGGCGTGGCCGTAGTCTTCGCT | 7030 |
| GTATTCAGAGACCATCACGTGATGGAAACGCGATTA | 14900 |
| CTTCTGTAAATTTGCTACGTGGGTGGACGCGCCCCG | 7640 |
| GTCTCTGCTTTTCCACACGTGGAAGTTCACCAAGAA | 13700 |
| AAAAAAATTAGGGGACGCGTGGGTAGGGCCGGCTTT | 10100 |
| ATCAGTAGACATGGACACGTGCCAGAAGTCATCAAA | 17400 |
| CTTTCCCGATCTTTTCACGTGCAATTAGCACATTTG | 13300 |
| GTCTCTAACCATGATACCGTGACTCGACTACATCCG | 5680 |
| CTTCTGTAAATTTGGGCGGTGGGTGGACGCGCCCCG | 4440 |
| AAAGCGGTAATTTGTCACCCTACTTCACATATCTAT | 4000 |
| GTCTTGTCTCATTGGCCCGTGGGTGTCCCCACTTCA | 10300 |
| AACTGCCAATACCGTCACGTTATGGAAGGTGAAGTG | 7670 |
| CTTGCTCACTTCTGGCGTGTTCAAGTGGGGATCTGT | 4850 |
| AGCAGTTTGAATTGTCATGTGCAAACAACCAGCAAT | 8230 |

Study 3 — method: universal PBM; form: double-stranded DNA, one strand shown; medium: in vitro; concentration: 600 nM; direction: higher = stronger binding
Target: Sal-like protein 4, full length isoform A (SALL4, Homo sapiens, UniProt Q9UJQ4, residues 1-1053)
Sequence of UniProt Q9UJQ4 (whole entry, looked up): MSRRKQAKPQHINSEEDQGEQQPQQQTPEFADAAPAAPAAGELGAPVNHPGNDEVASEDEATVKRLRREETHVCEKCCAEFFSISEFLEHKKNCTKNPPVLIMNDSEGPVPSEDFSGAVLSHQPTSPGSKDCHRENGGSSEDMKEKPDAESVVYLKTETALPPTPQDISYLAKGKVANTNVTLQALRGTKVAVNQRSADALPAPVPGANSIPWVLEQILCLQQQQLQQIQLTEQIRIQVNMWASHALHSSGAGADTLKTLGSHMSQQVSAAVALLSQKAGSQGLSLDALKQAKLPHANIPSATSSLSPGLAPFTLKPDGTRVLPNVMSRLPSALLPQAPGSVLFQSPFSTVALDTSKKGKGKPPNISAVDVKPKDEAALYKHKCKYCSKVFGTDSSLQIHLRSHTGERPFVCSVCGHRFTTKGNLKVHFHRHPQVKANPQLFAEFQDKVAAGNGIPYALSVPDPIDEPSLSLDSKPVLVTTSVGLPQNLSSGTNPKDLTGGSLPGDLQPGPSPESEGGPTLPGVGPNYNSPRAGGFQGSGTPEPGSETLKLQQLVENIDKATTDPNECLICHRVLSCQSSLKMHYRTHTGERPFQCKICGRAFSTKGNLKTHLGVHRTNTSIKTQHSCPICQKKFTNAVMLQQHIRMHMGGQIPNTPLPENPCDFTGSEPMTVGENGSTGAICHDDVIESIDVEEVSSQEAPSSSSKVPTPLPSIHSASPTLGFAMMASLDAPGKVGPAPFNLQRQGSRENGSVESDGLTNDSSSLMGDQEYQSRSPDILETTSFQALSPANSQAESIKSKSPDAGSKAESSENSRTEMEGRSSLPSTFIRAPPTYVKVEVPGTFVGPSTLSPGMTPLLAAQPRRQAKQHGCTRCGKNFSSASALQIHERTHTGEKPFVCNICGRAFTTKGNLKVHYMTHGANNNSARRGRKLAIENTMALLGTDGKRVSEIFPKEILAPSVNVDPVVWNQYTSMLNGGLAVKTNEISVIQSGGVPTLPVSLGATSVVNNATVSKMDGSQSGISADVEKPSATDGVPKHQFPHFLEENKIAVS
Notes: 8-mer, flanks averaged, mean of replicates
| Sequence | E-score |
| --- | --- |
| ATGTTGAC | 0.191 |
| CCAAATGG | -0.0388 |
| ACAGCTGT | -0.18 |
| CCGATTGA | -0.109 |
| AGAAATTC | 0.044 |
| CAAGAGGC | -0.183 |
| CAGCCGAG | -0.228 |
| CCCTTGTC | -0.116 |
| GACGTGAA | -0.0328 |
| AAAATGCC | 0.156 |
| ACTACTAG | 0.0817 |
| CACGGCTC | -0.15 |
| ACTGCCAT | 0.0718 |
| AGCCCTCA | -0.198 |
| CAGGAATC | 0.0687 |
| CAATGCTC | 0.0718 |
| AGACACCT | -0.066 |
| GGCATACA | 0.0462 |

Study 4 — method: protein binding microarray; form: double-stranded DNA, one strand shown; medium: in vitro; concentration: not given; baseline: not given; direction: higher = stronger binding
Target: Histone acetyltransferase KAT6A, both winged helices, GST fusion (KAT6A, Homo sapiens, UniProt Q92794, residues 1-181)
Notes: 8-mer, flanks averaged, mean of 2 arrays, mostly near background
Construct (chain): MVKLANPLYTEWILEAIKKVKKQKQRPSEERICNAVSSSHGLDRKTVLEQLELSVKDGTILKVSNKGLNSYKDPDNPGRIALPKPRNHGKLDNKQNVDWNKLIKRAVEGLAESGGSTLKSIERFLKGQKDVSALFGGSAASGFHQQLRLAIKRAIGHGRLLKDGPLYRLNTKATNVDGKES
| Sequence | E-score |
| --- | --- |
| ACCCTGGC | -0.0881 |
| ACATCGTC | -0.033 |
| AGTCGCAC | 0.0626 |
| GTATTACA | -0.0144 |
| GATTATCA | -0.0105 |
| AATCCACT | -0.228 |
| AATGCCAA | -0.225 |
| AGCGTGAT | 0.0974 |
| CCCCGAAG | 0.0667 |
| TTGAGAAA | -0.202 |
| GACGCAGA | 0.202 |
| CTCTTCAA | -0.0806 |
| AACTTCAG | -0.0766 |
| CTTAGTTA | -0.0602 |
| GTGCATAA | -0.0149 |
| GCTCGCCC | 0.0351 |

Repeated from above (study 2):
| Sequence | fluorescence intensity [a.u.] |
| --- | --- |
| CAGAAGCCGCGATTTCACATGCCGGCCATTATGGCA | 5170 |
| CTTCTGTAAATTTAGCACGTGTTTTGACGCGCCCCG | 17300 |
| CTTTCCCGATCTTTTCACGTGCAATTAGCACATTTG | 13300 |
| GTATTCAGAGACCATCACGTGATGGAAACGCGATTA | 14900 |
| GTCTTGTCTCATTGTTTGGTGGGTGTCCCCACTTCA | 4810 |
| AGCAGTTTGAATTGTCATGTGCAAACAACCAGCAAT | 8230 |
| TGCGCAACAACTTGTCGTGTGGGTGTATGTCTAGAA | 6680 |
| CTTCTGTAAATTTGCTACGTGGGTGGACGCGCCCCG | 7640 |
| CTTCTGTAAATTTGGGCGGTGGGTGGACGCGCCCCG | 4440 |
